Published values gathered from unrelated publications.
A part holds a random share of what one study measured. ± marks the error that the study gave.
Chain of UniProt P17655 (whole entry, looked up): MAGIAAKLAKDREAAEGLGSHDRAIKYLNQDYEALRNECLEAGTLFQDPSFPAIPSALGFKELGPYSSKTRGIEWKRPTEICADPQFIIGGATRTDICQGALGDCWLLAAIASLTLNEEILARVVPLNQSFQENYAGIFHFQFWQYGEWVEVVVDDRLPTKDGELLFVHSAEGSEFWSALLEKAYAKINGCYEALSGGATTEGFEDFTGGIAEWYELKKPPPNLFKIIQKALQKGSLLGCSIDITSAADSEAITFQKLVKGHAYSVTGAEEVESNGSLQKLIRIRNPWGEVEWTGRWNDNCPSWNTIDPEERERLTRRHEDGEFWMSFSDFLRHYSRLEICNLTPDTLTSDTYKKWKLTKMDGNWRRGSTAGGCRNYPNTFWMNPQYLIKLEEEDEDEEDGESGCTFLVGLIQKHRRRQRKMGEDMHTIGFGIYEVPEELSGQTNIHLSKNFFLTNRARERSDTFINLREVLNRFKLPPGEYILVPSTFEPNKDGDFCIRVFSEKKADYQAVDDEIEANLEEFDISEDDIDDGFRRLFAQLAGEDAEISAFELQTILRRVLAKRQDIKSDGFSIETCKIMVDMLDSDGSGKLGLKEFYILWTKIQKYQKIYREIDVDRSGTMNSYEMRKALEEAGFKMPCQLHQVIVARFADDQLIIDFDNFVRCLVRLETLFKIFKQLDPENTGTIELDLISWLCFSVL

Series 1
Cell line: MDA-MB-468
Time: 72 h
| SMILES | CC50 |
| --- | --- |
| O=C(NCc1ccc(Cl)cc1)c1cn(Cc2ccc(Cl)cc2)c2ccc(Oc3ccccc3)cc2c1=O | > 100 µM |
| O=C(NCc1ccccc1)c1cn(Cc2ccc(C(F)(F)F)cc2)c2ccc(Oc3ccccc3)cc2c1=O | 83.2 ± 4.36 µM |
| O=C(NCc1ccc(O)cc1)c1cn(Cc2ccc(F)cc2)c2ccc(Oc3ccccc3)cc2c1=O | 67.2 ± 4.2 µM |

Other studies, line by line
| Structure (SMILES) | target or system | assay | setting | scale | measurement | value |
| --- | --- | --- | --- | --- | --- | --- |
| C1=C2CCCN[C@H]2[C@@H]2C[C@H]1[C@H]1CCCCN1C2 | MDCK | cell viability | 2 days |  | CC50 | > 80 µM |
| NC(=O)CI | Calpain-2 catalytic subunit (Homo sapiens, UniProt P17655) | enzyme activity, inhibitor |  |  | IC50 | 80 µM |
| C[C@@H]1C[C@@H]([C@H](O)CC2CC(=O)NC(=O)C2)C(=O)[C@@H](C)C1 | HepG2 | Click-iT HPG fluorescence | 6.25 µM, 50 µM | relative to: DMSO vehicle | protein translation | decreased |

A few entries again (other studies, line by line):
| Structure (SMILES) | target or system | assay | setting | scale | measurement | value |
| --- | --- | --- | --- | --- | --- | --- |
| C[C@@H]1C[C@@H]([C@H](O)CC2CC(=O)NC(=O)C2)C(=O)[C@@H](C)C1 | HepG2 | Click-iT HPG fluorescence | 6.25 µM, 50 µM | relative to: DMSO vehicle | protein translation | decreased |
